Measurements pooled from the literature.
Every numbered part comes from another study and shows a few of its results, in no order. Positions count from the first letter of the parent shown.

Block 1
Target: Protein C-ets-1 (ETS1, Homo sapiens, UniProt P14921, residues 1-441, K379A, full length assumed)
Chain of UniProt P14921 (whole entry, unmodified, looked up): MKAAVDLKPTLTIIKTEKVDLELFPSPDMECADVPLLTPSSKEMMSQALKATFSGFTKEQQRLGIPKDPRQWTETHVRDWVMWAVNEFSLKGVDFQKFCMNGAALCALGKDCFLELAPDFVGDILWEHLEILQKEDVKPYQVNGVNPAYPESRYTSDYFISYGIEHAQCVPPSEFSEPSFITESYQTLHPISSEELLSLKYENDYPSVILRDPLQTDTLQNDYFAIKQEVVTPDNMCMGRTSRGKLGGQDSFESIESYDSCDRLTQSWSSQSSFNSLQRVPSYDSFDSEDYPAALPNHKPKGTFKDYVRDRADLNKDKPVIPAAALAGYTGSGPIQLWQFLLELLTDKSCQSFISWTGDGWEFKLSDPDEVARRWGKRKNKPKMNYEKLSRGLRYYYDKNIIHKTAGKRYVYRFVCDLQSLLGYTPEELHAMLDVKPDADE
Method: protein-binding microarray
Molecule type: double-stranded DNA, one strand shown
Matrix: in vitro
Tested at: not given
Setting: k-mer, scored over probes, only values ≥0.25
Reading: higher = stronger binding
| Oligonucleotide | E-score |
| --- | --- |
| GTTTCCTA | 0.266 |
| AACCCGGT | 0.331 |
| CGGGACAG | 0.289 |
| AATTTTCC | 0.281 |
| CGGAAGTC | 0.402 |
| AATAACCG | 0.262 |

Block 2
Target: Sal-like protein 4, full length isoform A (SALL4, Homo sapiens, UniProt Q9UJQ4, residues 1-1053)
Chain of UniProt Q9UJQ4 (whole entry, looked up): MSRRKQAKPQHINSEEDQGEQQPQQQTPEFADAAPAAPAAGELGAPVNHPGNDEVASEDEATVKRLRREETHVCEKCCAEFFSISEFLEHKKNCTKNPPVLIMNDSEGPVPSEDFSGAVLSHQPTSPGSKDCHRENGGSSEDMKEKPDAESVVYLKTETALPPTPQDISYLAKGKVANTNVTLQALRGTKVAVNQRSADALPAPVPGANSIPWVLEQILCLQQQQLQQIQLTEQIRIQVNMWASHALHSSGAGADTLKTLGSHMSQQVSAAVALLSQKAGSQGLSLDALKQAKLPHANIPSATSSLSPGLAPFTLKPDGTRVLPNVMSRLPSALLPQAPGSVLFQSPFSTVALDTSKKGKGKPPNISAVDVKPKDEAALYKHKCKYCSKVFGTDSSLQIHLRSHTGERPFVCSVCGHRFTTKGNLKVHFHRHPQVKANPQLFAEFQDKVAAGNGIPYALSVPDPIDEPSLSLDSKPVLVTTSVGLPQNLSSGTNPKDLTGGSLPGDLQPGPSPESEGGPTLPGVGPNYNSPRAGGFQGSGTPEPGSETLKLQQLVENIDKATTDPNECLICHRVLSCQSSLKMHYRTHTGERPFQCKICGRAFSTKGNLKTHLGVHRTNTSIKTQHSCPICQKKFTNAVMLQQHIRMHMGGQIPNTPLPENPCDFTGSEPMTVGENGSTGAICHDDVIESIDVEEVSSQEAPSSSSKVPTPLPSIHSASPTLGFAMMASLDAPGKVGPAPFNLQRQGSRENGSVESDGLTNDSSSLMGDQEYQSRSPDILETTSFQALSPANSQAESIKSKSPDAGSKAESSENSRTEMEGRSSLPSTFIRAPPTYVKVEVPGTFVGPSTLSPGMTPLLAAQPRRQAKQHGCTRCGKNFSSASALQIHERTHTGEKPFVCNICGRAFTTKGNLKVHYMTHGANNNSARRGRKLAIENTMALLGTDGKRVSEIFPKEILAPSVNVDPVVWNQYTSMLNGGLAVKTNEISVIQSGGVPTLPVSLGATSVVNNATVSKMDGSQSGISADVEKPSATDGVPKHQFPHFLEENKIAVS
Method: universal PBM
Molecule type: double-stranded DNA, one strand shown
Matrix: in vitro
Tested at: 600 nM
Setting: 8-mer, flanks averaged, mean of replicates
Reading: higher = stronger binding
| Oligonucleotide | E-score |
| --- | --- |
| TGCGCGCA | -0.0273 |
| AACATCTA | 0.156 |
| CTTCCTAC | -0.159 |
| TCGATAGA | 0.134 |
| AGTTCAGA | 0.0931 |
| ACTTGGAG | -0.141 |
| GAGGAAGA | 0.0305 |
| AAAGACAG | 0.0914 |
| GGCGTAAA | -0.0477 |
| AATGTGAC | 0.0216 |

Block 3
Target: CCNA1, cyclin fold, Cln2 fusion (human)
Method: yeast growth competition, sequencing
Matrix: yeast
Setting: weak parent motif
Baseline: not given
Reading: higher = stronger binding
Starting sequence: SLBP docking peptide (human); ARYKRKLLINDFG
| Substitution | normalised enrichment score |
| --- | --- |
| AKYKRKLLINDFG [R2K] | 0.361 |
| ARYKRKLLINDEG [F12E] | 0.277 |
| ARYKRKLLINGFG [D11G] | 0.359 |
| ARYFRKLLINDFG [K4F] | 0.2 |

Mixed results
| Molecule | target | test | test system | conditions | how to read | quantity | value |
| --- | --- | --- | --- | --- | --- | --- | --- |
| PhoQ, residues 284 288 289 292 302 303 TNASYF | PhoP, residues 12 14 15 18 19 LHHVQ (Escherichia coli, UniProt P23836) | Sort-seq, measured: YFP reporter | E. coli | PhoQ-PhoP variant library, together with: 10 µM Mg2+ | baseline: high Mg2+ state, higher = stronger signaling | fold induction | 10.7 |
